Measurements gathered from unrelated publications.
Protocols differ between the studies behind these lines. ± marks the error that the study gave.
Organism: Leishmania donovani

Compound	assay	system	conditions	how to read	quantity	value
COc1ccc2c(c1)c1cc(C=O)c(OC)cc1n2C	parasite growth, resazurin	–	72 h, promastigote	–	IC50	> 148 µM
c1ccc2c(NCCCn3ccnc3)ncnc2c1	–	J774.2 macrophages	IC25, 240 h, day 10	baseline: untreated	infection inhibition	65%
C[C@@H]1[C@H](O)[C@@H](C)/C=C/C=C/C=C/C=C/C=C/C=C/C=C/[C@H](O[C@@H]2O[C@H](C)[C@@H](O)[C@H](N)[C@@H]2O)C[C@@H]2O[C@](O)(C[C@@H](O)C[C@@H](O)[C@H](O)CC[C@@H](O)C[C@@H](O)CC(=O)O[C@H]1C)C[C@H](O)[C@H]2C(=O)O	parasite growth, resazurin	THP-1	24 h, intracellular, amastigote	–	IC50	0.05 µM
CSc1ccc(OCc2ncc([N+](=O)[O-])n2C)cc1	parasite growth	mouse Macrophage	72 h, intracellular, amastigote	–	EC50	> 50 µM
N=C(N)c1ccc(OCCCCCOc2ccc(C(=N)N)cc2)cc1	parasite growth	THP-1	intracellular, amastigote	–	IC90	> 16.9 µM
Clc1ccccc1C(c1ccccc1)(c1ccccc1)n1ccnc1	LC-MS/MS	LV82 promastigote	20 µM, 24 h, with fecosterol, 4-methylzymosterol, unit not given	baseline: DMSO	episterol level	0.025 ± 0.013
CCCCCCCCCCCCCCCCOP(=O)([O-])OCC[N+](C)(C)C	parasite growth	mouse Macrophage	72 h, intracellular, amastigote	–	EC50	3.3 µM
O=C1NC(=S)S/C1=C\c1cn(Cc2ccc(F)cc2)c2ccc([N+](=O)[O-])cc12	parasite growth, resazurin	THP-1	72 h, intracellular, amastigote	–	IC50	> 10 µM
C[C@@H](c1ncncc1F)[C@](O)(Cn1cncn1)c1ccc(F)cc1F	LC-MS/MS	LV82 promastigote	50 µM, 24 h, with episterol, 4-methylzymosterol, unit not given	baseline: DMSO	fecosterol level	0.18 ± 0.06
C[C@@H]1N[C@H](CCCCCCCCCCc2cc(CCCCCCCCCC[C@@H]3CC[C@H](O)[C@@H](C)N3)c3[n+](c2)CCC3)CC[C@H]1O	parasite growth	THP-1	intracellular, amastigote	–	IC90	8.74 µg/mL
O=C1NC(=S)S/C1=C\c1cn(Cc2cccc(Cl)c2)c2ccc([N+](=O)[O-])cc12	parasite growth, resazurin	THP-1	72 h, intracellular, amastigote	–	IC50	2.02 µM
Cn1c([N+](=O)[O-])cnc1COc1ccc(S(C)(=O)=O)cc1	parasite growth	mouse peritoneal macrophages, LV9	intracellular amastigotes	–	EC99	45.2 µM
Cc1ccc(Cn2cc(/C=N/N3C(=O)CSC3=S)c3cc([N+](=O)[O-])ccc32)cc1	parasite growth, resazurin	THP-1	24 h, intracellular, amastigote	–	IC50	> 10 µM
N=C(N)c1ccc(OCCCCCOc2ccc(C(=N)N)cc2)cc1	viability	axenic amastigotes	72 h	–	IC50	1 µg/mL
Cn1c([N+](=O)[O-])cnc1COc1ccc([S+](C)[O-])cc1 (centres unmarked)	parasite growth	mouse Macrophage	72 h, intracellular, amastigote	–	EC50	5.3 µM
O=C1CSC(=S)N1/N=C/c1c[nH]c2ccc([N+](=O)[O-])cc12	parasite growth, resazurin	THP-1	72 h, intracellular, amastigote	–	IC50	> 10 µM
Cc1cc2[nH]c(C(=O)Nc3ccccc3Cl)c(CN3CCOCC3)c2s1	parasite growth	THP-1	80 µM, intracellular, amastigote	–	inhibition	< 50%
